{"data": "Results from different studies", "note": "Protocols differ between the studies behind these lines. ± gives the spread as reported."}
{"Molecule": "NC1(c2ccccc2Cl)CCC=CC1=O (stereo not drawn)", "assay": "metabolite formation, metabolite", "test system": "pooled human liver microsomes", "conditions": "30 min, 37 °C, with: (S)-norketamine substrate", "measurement": "Vmax", "result": "437 pmol/min/mg protein"}
{"Molecule": "CCCCCn1cc(C(=O)c2ccc(CC)c3ccccc23)c2ccccc21", "assay": "handling reactivity, functional observational battery", "test system": "ICR mice, male", "conditions": "iv", "scale": "reference: vehicle", "measurement": "lowest dose with significant effect", "result": "0.3 to 3 mg/kg"}
{"Molecule": "O=C(NS(=O)(=O)c1ccc(NC[C@H]2COCCO2)c([N+](=O)[O-])c1)c1ccc(N2CCN(CC3=C(c4ccc(Cl)cc4)CC4(CCC4)CC3)CC2)cc1Oc1cnc2[nH]ccc2c1", "test system": "relapsed or refractory CLL/SLL patients", "conditions": "dose not given, trial", "measurement": "objective response rate", "result": "63.6%"}
{"Molecule": "O=C(c1cccc2ccccc12)c1cn(CCCCCF)c2ccccc12", "assay": "handling reactivity, functional observational battery", "test system": "ICR mice, male", "conditions": "iv", "scale": "reference: vehicle", "measurement": "lowest dose with significant effect", "result": "0.1 to 1 mg/kg"}
{"Molecule": "CN1C(=O)CN=C(c2ccccc2)c2cc(Cl)ccc21", "assay": "elevated plus maze", "test system": "CD-1 mice", "conditions": "i.p., 1 mg/kg, 30 min before test", "scale": "reference: vehicle", "measurement": "open arm time and entries", "result": "increased"}
{"Molecule": "CCCCCc1cc(O)c2c(c1)OC(C)(C)[C@@H]1CCC(C)=C[C@@H]21", "assay": "hypothermia", "test system": "ICR mice, male, rectal temperature", "conditions": "intraperitoneal", "measurement": "ED50", "result": "5.21 mg/kg"}
{"Molecule": "CCC1(c2ccccc2)C(=O)NC(=O)NC1=O", "assay": "seizure protection", "test system": "albino mouse, scPTZ-induced seizure", "conditions": "ip, 0.5 h", "measurement": "minimal effective dose", "result": "30 mg/kg"}
{"Molecule": "CCCCCn1cc(C(=O)c2ccc(CC)c3ccccc23)c2ccccc21", "test system": "male ND4 Swiss-Webster mice", "conditions": "intraperitoneal, 1 to 10 mg/kg", "measurement": "onset of locomotor depression", "result": "≤ 30 min"}
{"Molecule": "CCCCCn1cc(C(=O)Cc2ccccc2)c2ccccc21", "assay": "handling reactivity, functional observational battery", "test system": "ICR mice, male", "conditions": "iv", "scale": "reference: vehicle", "measurement": "lowest dose with significant effect", "result": "3 to 30 mg/kg"}
{"Molecule": "NC(=O)C[S+]([O-])C(c1ccccc1)c1ccccc1 (racemic)", "test system": "mouse, C57BL/6, female, EAE", "conditions": "dose not given, day 24, with: noxious paw pressure", "scale": "reference: vehicle", "measurement": "audible vocalisation duration", "result": "inhibited"}
{"Molecule": "CCCCCn1cc(C(=O)c2ccc(C)c3ccccc23)c2ccccc21", "test system": "male ND4 Swiss-Webster mice", "conditions": "intraperitoneal, 0.5 and 1 mg/kg", "measurement": "onset of locomotor depression", "result": "≤ 40 min"}
{"Molecule": "CC[C@@H](C(N)=O)N1CCCC1=O", "assay": "hyperthermia-induced seizures", "test system": "Scn1a+/- mouse", "conditions": "intraperitoneal, 10 mg/kg", "measurement": "seizure-free animals", "result": "50%"}
{"Molecule": "COc1ccc2cc3[n+](cc2c1OC)CCc1cc2c(cc1-3)OCO2", "test system": "rat, STZ-induced diabetic, liver", "conditions": "oral, 12 mg/kg, day 28", "measurement": "catalase activity", "result": "33 ± 1.21 U/mg protein"}
{"Molecule": "CCCCCn1nc(C(=O)NC(C(N)=O)C(C)(C)C)c2ccccc21 (stereo not drawn)", "test system": "male ND4 Swiss-Webster mice", "conditions": "intraperitoneal, 0.25 to 1 mg/kg", "measurement": "onset of locomotor depression", "result": "≤ 10 min"}
{"Molecule": "opicalcin 1", "test system": "ICR mice, caffeine-epinephrine acute heart failure", "conditions": "intravenous, 5 mg/kg, 30 min, with: caffeine 120 mg/kg and epinephrine 2 mg/kg", "measurement": "survival rate", "result": "> 80%"}
{"Molecule": "COC(=O)[C@H]1[C@@H](OC(=O)c2ccccc2)C[C@@H]2CC[C@H]1N2C", "assay": "in vivo microdialysis", "test system": "rat, nucleus accumbens shell", "conditions": "intraperitoneal, 10.0 mg/kg, 0 to 30 min after dosing, mean over place-conditioning session", "scale": "reference: baseline", "measurement": "extracellular dopamine level", "result": "281%"}
{"Molecule": "CNC(C)Cc1ccc2c(c1)OCO2 (racemic)", "assay": "visual analog scale, item: Loving", "test system": "human", "conditions": "oral, 1.5 mg/kg, mean over session, unit not given", "scale": "reference: pre-dose baseline", "measurement": "mood rating", "result": 28.6}
{"Molecule": "CC(C)NCCc1c[nH]c2cccc(O)c12.O=C(O)/C=C/C(=O)O", "assay": "head twitch response", "test system": "C57BL/6J mice", "conditions": "subcutaneous, 30 min session", "measurement": "ED50", "result": "2.9 to 3.3 mg/kg"}
{"note": "Excerpt of the above:"}
{"Molecule": "COc1ccc2cc3[n+](cc2c1OC)CCc1cc2c(cc1-3)OCO2", "test system": "rat, STZ-induced diabetic, liver", "conditions": "oral, 12 mg/kg, day 28", "measurement": "catalase activity", "result": "33 ± 1.21 U/mg protein"}
{"Molecule": "CCCCCn1nc(C(=O)NC(C(N)=O)C(C)(C)C)c2ccccc21 (stereo not drawn)", "test system": "male ND4 Swiss-Webster mice", "conditions": "intraperitoneal, 0.25 to 1 mg/kg", "measurement": "onset of locomotor depression", "result": "≤ 10 min"}
{"Molecule": "opicalcin 1", "test system": "ICR mice, caffeine-epinephrine acute heart failure", "conditions": "intravenous, 5 mg/kg, 30 min, with: caffeine 120 mg/kg and epinephrine 2 mg/kg", "measurement": "survival rate", "result": "> 80%"}
